Results from different studies.
Each line is one published result; not all experiments were run side by side. Numbers after ± are the reported error.
Cell line: MDA-MB-231

SMILES | assay | conditions | how to read | quantity | result
CCCNC(=O)[C@H]1O[C@@H]1C(=O)N[C@H](C(=O)N1CCC[C@H]1C(=O)OCC1=C2C(C)=CC(C)=[N+]2[B-](CC)(CC)n2c(C)cc(C)c21)[C@@H](C)CC | cell growth or viability, MTT | dark | – | EC50 | > 50 µM
C[C@@H]1CC[C@@H]([C@](O)(CNCc2cccc(F)c2)COCc2ccccc2)[C@H](OCc2ccccc2)C1 | cell growth or viability, MTT | 30 µM, 72 h | – | inhibition | 96.1%
CC(=O)[O][Pd][c]1ccccc1-n1nc(C)cc1C.CC(=O)[O][Pd][c]1ccccc1-n1nc(C)cc1C | FLICA flow cytometry | 25 µM, 24 h | – | caspase-8 active cells | 31.1 ± 2.05%
CCc1c(C)c2ccc(OC(C)C)c(C)c2oc1=O | cell growth or viability, MTT | 125 µg/mL | – | viability | 9.32%
C[C@@H]1O[C@H]2O[C@@H]3C4(O)C(=O)c5cccc(O)c5C(=O)C4(O)O[C@]3(C)[C@]21O (some centres unmarked) | cell growth or viability, MTT | 48 h | – | EC50 | 64.5 µM
COc1ccccc1CNC[C@@](O)(COCc1ccccc1)[C@@H]1CC[C@@H](C)C[C@H]1OCc1ccccc1 | cell growth or viability, MTT | 10 µM, 72 h | – | inhibition | 95%
Cc1cnc(Nc2ccc3c(c2)CCN(C(=O)/C=C/C(=O)c2ccc(Cl)cc2)C3)nc1-c1cnn(C(C)C)c1 | cell growth or viability, MTT | 1 µM, 48 h | – | inhibition | ~96%
Oc1cccc(-c2cccc(O)n2)n1.[Cl-].[Cl-].[Ru+2].c1ccc(-c2ccnc3c2ccc2c(-c4ccccc4)ccnc23)cc1.c1ccc(-c2ccnc3c2ccc2c(-c4ccccc4)ccnc23)cc1 | CCK-8 viability | white light 2 h | – | EC50 | 0.25 µM
CC(=O)OCC1=C2C(C)=CC(C)=[N+]2[B-](C)(C)n2c(C)cc(C)c21 | cell viability, MTT | 72 h, dark | – | EC50 | > 50 µM
CC(C)c1ccc(N(C)c2ccc3c(c2)OCC[C@H]3CNc2cnccc2C(=O)O)cc1 | flow cytometry, propidium iodide | 0.1 µM, 24 h | – | S-phase cells | 40%
COc1ccccc1-c1ccncc1C(=O)Nc1nnc(OCc2ccc(Cl)cc2)s1 | – | 3 µM, mean of 3 replicates | baseline: untreated | colony survival | 87.2%
COc1cccc(CNC[C@](O)(COCc2ccccc2)[C@@H]2CC[C@@H](C)C[C@H]2OCc2ccccc2)c1 | cell growth or viability, MTT | 30 µM, 72 h | – | inhibition | 95.1%
CC(=O)OC[C@H]1O[C@@H](n2cc(CSc3nc4ccccc4n3Cc3cn([C@@H]4O[C@H](COC(C)=O)[C@@H](OC(C)=O)C(OC(C)=O)[C@H]4OC(C)=O)nn3)nn2)[C@H](OC(C)=O)C(OC(C)=O)[C@@H]1OC(C)=O (stereo in doubt) | MTT | 7.81 ppm | – | cytotoxicity | 68.3%
C[C@@H]1CC[C@@H]([C@](O)(CNCc2ccccc2F)COCc2ccccc2)[C@H](OCc2ccccc2)C1 | cell growth or viability, MTT | 30 µM, 72 h | – | inhibition | 93.8%
CCCNC(=O)[C@H]1O[C@@H]1C(=O)N[C@H](C(=O)N1CCC[C@H]1C(=O)OCC1=C2C(C)=CC(C)=[N+]2[B-](F)(F)n2c(C)cc(C)c21)[C@@H](C)CC | cell growth or viability, MTT | dark | – | EC50 | > 50 µM
C[C@@H]1CC[C@@H]([C@](O)(COCc2ccccc2)Cn2cnc3ccccc32)[C@H](OCc2ccccc2)C1 | cell growth or viability, MTT | 10 µM, 72 h | – | inhibition | 84.7%
Cc1nc2c(F)cc(-c3nc(Nc4ccc(C(=O)NCCCCCC(=O)NO)cc4)ncc3F)cc2n1C(C)C | cell growth or viability, CCK-8 | 0.3 µM, 48 h | – | inhibition | 96%

For quick reference, copied from above:
SMILES | assay | conditions | how to read | quantity | result
CCc1c(C)c2ccc(OC(C)C)c(C)c2oc1=O | cell growth or viability, MTT | 125 µg/mL | – | viability | 9.32%
C[C@@H]1O[C@H]2O[C@@H]3C4(O)C(=O)c5cccc(O)c5C(=O)C4(O)O[C@]3(C)[C@]21O (some centres unmarked) | cell growth or viability, MTT | 48 h | – | EC50 | 64.5 µM
